{"sequences": {"note": "Amino acid sequences for entries named in this document (tags omitted). Residues count along the entry.", "UniProt A0ACI6R699, 1-443": "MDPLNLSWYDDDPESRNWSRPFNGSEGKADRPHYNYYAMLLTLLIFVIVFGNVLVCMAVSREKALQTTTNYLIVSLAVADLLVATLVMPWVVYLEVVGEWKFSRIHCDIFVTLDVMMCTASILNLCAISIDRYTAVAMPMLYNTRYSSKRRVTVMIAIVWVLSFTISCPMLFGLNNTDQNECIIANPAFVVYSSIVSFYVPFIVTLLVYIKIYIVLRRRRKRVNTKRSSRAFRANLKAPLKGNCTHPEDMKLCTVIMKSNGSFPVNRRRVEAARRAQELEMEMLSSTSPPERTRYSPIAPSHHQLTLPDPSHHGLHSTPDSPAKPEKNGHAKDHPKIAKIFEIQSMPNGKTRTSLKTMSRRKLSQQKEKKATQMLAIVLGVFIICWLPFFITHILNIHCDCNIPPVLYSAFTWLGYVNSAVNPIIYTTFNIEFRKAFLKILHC"}, "data": "Earlier results, collected from citations in different studies", "note": "Lines come from different studies, so protocols differ. ± gives the spread as reported."}
{"Compound": "CC(C)C[C@@H]1NC(=O)[C@H](C(C)C)NC(=O)[C@H](C)NC(=O)[C@@H]2CSSC[C@H](NC(=O)CN)C(=O)N[C@@H](CSSC[C@@H](C(N)=O)NC(=O)[C@H](Cc3ccc(O)cc3)NC1=O)C(=O)N[C@@H](CO)C(=O)N[C@@H]([C@@H](C)O)C(=O)N1CCC[C@H]1C(=O)N1CCC[C@H]1C(=O)N2", "target or system": "α6/α3β2β3 nicotinic acetylcholine receptor", "test": "antagonist", "quantity": "IC50", "value": "0.26 nM"}
{"Compound": "CCCCC/C=C\\C/C=C\\C/C=C\\C/C=C\\CCCCP(=O)(F)OC (stereo not shown)", "target or system": "FAAH", "quantity": "IC50", "value": "2.5 nM"}
{"Compound": "CCC(CC)C1c2ccccc2C=NN1C(=O)/C=C/c1cc(Cc2cnc(N)nc2N)cc(OC)c1OC (racemic)", "target or system": "Bacillus anthracis", "quantity": "MIC", "value": "4 to 8 µg/mL"}
{"Compound": "CCCC1c2ccccc2C=NN1C(=O)/C=C/c1cc(Cc2cnc(N)nc2N)cc(OC)c1OC (racemic)", "target or system": "Bacillus anthracis", "system": "Sterne", "quantity": "MIC", "value": "1 to 4 µg/mL"}
{"Compound": "CC(C)(C)c1cc[n+](CCCCCCCC[n+]2ccc(C(C)(C)C)cc2)cc1", "system": "mouse", "how to read": "reference: LD50 pretreated over non-pretreated", "quantity": "protective ratio", "value": 0.98}
{"Compound": "O=C(O)CCC(=O)Nc1ccc(CCN2CN(c3ccccc3)C3(CCN(CCCC(=O)c4ccc(F)cc4)CC3)C2=O)cc1", "target or system": "Dopamine D2 receptor (Ovis aries, UniProt A0ACI6R699)", "test": "binding", "system": "sheep brain striatum membranes", "setting": "with: [3H]YM-09151-2", "quantity": "Kd", "value": "0.7 ± 0.06 nM"}
{"Compound": "Cc1cc(C(=O)N[C@@H](Cc2cccc3ccccc23)C(=O)N[C@@H](CC(C)C)C(=O)N[C@H](C=O)C[C@@H]2CCCNC2=O)no1", "target or system": "Calu-3", "test": "cytotoxicity", "quantity": "CC50", "value": "> 100000 nM"}
{"Compound": "CCOP(=O)(OCC)ON1C(=O)c2cccc3cccc(c23)C1=O", "system": "rat", "setting": "oral", "quantity": "LD50", "value": "140 mg/kg"}
{"Compound": "CC[C@H](C)[C@H](NC(=O)[C@H](CCCNC(=N)N)NC(=O)[C@H](CCCCN)NC(=O)[C@H](CC(C)C)NC(=O)[C@H](CS)NC(=O)[C@H](CCC(=O)O)NC(=O)[C@H](CO)NC(=O)[C@H](CC(C)C)NC(=O)[C@H](CCCCN)NC(=O)[C@H](CCCCN)NC(=O)[C@@H](NC(=O)[C@H](CO)NC(=O)[C@H](C)NC(=O)[C@H](CC(=O)O)NC(=O)[C@H](CCC(N)=O)NC(=O)[C@@H]1CCCN1C(=O)[C@@H](N)C(C)C)[C@@H](C)O)C(=O)NCC(=O)N[C@@H](CC(=O)O)C(=O)N[C@@H](CCC(=O)O)C(=O)N[C@@H](CC(C)C)C(=O)N[C@@H](CC(=O)O)C(=O)N[C@@H](CO)C(=O)N[C@@H](CC(N)=O)C(=O)N[C@@H](CCSC)C(=O)N[C@@H](CCC(=O)O)C(=O)N[C@@H](CC(C)C)C(=O)N[C@@H](CCC(N)=O)C(=O)O", "target or system": "variola virus F1L", "test": "binding", "setting": "with: BH3 peptides", "quantity": "Kd", "value": "960 nM"}
{"Compound": "c1ccc2c[n+](CCCCCCCC[n+]3ccc4ccccc4c3)ccc2c1", "system": "mouse", "how to read": "reference: LD50 pretreated over non-pretreated", "quantity": "protective ratio", "value": 0.87}
{"Compound": "COc1cc(Cc2cnc(N)nc2N)cc(/C=C/C(=O)N2N=Cc3ccccc3C2c2ccccc2)c1OC (racemic)", "target or system": "Bacillus anthracis", "quantity": "MIC", "value": "0.4 to 1.5 µg/mL"}
{"Compound": "CNCc1ccc(C)c(C(=O)N[C@H](C)c2cccc3ccccc23)c1", "target or system": "SARS coronavirus", "test": "antiviral activity", "quantity": "EC50", "value": "2000 nM"}
{"Compound": "N=C(N)c1ccc(Oc2ccc(-c3cc4ccc(C(=N)N)cc4[nH]3)cc2)cc1", "target or system": "neurons", "setting": "40 µM", "quantity": "cytotoxicity", "value": "not toxic"}
{"note": "Excerpt of the above:"}
{"Compound": "CC(C)(C)c1cc[n+](CCCCCCCC[n+]2ccc(C(C)(C)C)cc2)cc1", "system": "mouse", "how to read": "reference: LD50 pretreated over non-pretreated", "quantity": "protective ratio", "value": 0.98}
{"Compound": "O=C(O)CCC(=O)Nc1ccc(CCN2CN(c3ccccc3)C3(CCN(CCCC(=O)c4ccc(F)cc4)CC3)C2=O)cc1", "target or system": "Dopamine D2 receptor (Ovis aries, UniProt A0ACI6R699)", "test": "binding", "system": "sheep brain striatum membranes", "setting": "with: [3H]YM-09151-2", "quantity": "Kd", "value": "0.7 ± 0.06 nM"}
